Assay results gathered from unrelated publications.
Numbers after ± are the reported error.

SMILES	tested on	assay	test system	setting	scale	quantity	value
CC[C@H](C)[C@H](NC(=O)[C@H](Cc1ccccc1)NC(=O)[C@H](CCC(=O)O)NC(=O)[C@H](CCCCNC(=O)COCCOCCNC(=O)COCCOCCNC(=O)CC[C@H](NC(=O)CCCCCCCCCCCCCCCCC(=O)O)C(=O)O)NC(=O)[C@H](C)NC(=O)[C@H](C)NC(=O)[C@H](CCC(N)=O)NC(=O)CNC(=O)[C@H](CCC(=O)O)NC(=O)[C@H](CC(C)C)NC(=O)[C@H](Cc1ccc(O)cc1)NC(=O)[C@H](CO)NC(=O)[C@H](CO)NC(=O)[C@@H](NC(=O)[C@H](CC(=O)O)NC(=O)[C@H](CO)NC(=O)[C@@H](NC(=O)[C@H](Cc1ccccc1)NC(=O)[C@@H](NC(=O)CNC(=O)[C@H](CCC(=O)O)NC(=O)C(C)(C)NC(=O)[C@@H](N)Cc1cnc[nH]1)[C@@H](C)O)[C@@H](C)O)C(C)C)C(=O)N[C@@H](C)C(=O)N[C@@H](Cc1c[nH]c2ccccc12)C(=O)N[C@@H](CC(C)C)C(=O)N[C@H](C(=O)N[C@@H](CCCNC(=N)N)C(=O)NCC(=O)N[C@@H](CCCNC(=N)N)C(=O)NCC(=O)O)C(C)C		measured: TNF-α, IL-10, IL-1β, IL-6	C57BL/6N mice, high-fat diet-induced obese, serum	intraperitoneal, dose not given, 29 days	relative to: vehicle	serum inflammatory cytokines	no effect
NC1(C(=O)N[C@@H](CCO)c2ccc(Cl)cc2)CCN(c2nc[nH]c3nccc2-3)CC1			metastatic CRPC patients	400 mg b.i.d., grade 3 to 4, treatment-related, together with: enzalutamide 160 mg daily		incidence of Stomatitis	0%
Cc1ccc(O)c(-n2nc3ccccc3n2)c1		exposure assessment	human, age 3-6 years	concentration not given, spray sunscreen, 95th percentile		daily dermal uptake, percentile	3980 ng/kg body weight/day
COc1ccnc(C(=O)O)c1O			water/sediment	whole system, geometric mean, no decline default		DT50	1000 days
CNC(=O)c1cc(Cl)c(OC(C)(C)C(=O)O)cc1OC[C@@H](O)CN1CCC2(CC1)Cc1cc(Cl)ccc1O2		equilibrium dialysis	rat, plasma			fraction unbound	0.44
O=C(c1cccnc1-c1ccncc1)N1CCC(O)(Cc2ccccc2)CC1			healthy Japanese adults	oral, dose not given, 21 days		participants with serious adverse events	0%
COc1cccc(OC)c1-c1cc(C(=O)NC2(C(=O)O)C3CC4CC(C3)CC2C4)nn1-c1ccc(C(=O)N(C)CCCN(C)CCCN(C)C(=O)CN2CCN(CC(=O)[O-])CCN(CC(=O)[O-])CCN(CC(=O)[O-])CC2)cc1C(C)C.[177Lu+3] (stereo not drawn)			mouse HT-29 xenograft	72 h, biodistribution	relative to: tumour over small intestine	tumour-to-small intestine ratio	58.6
COc1cccc(-c2n[nH]c(SCc3ccccn3)n2)c1OC			Sprague-Dawley rats, both sexes	oral dietary, 30 mg/kg/day, day 90, 12 h		plasma concentration	2860 ng/mL
CC(C)C[C@H](NC(=O)[C@H](CC(C)C)NC(=O)[C@H](Cc1c[nH]c2ccccc12)NC(=O)[C@H](CCC(=O)O)NC(=O)[C@@H](NC(=O)[C@H](Cc1ccccc1)NC(=O)[C@H](CCC(=O)O)NC(=O)[C@H](CCCCNC(=O)COCCOCCNC(=O)COCCOCCNC(=O)CC[C@H](NC(=O)CCCCCCCCCCCCCCCCCCC(=O)O)C(=O)O)NC(=O)[C@H](C)NC(=O)[C@H](CCCCN)NC(=O)[C@H](CCCCN)NC(=O)[C@H](CCC(=O)O)NC(=O)[C@H](CC(=O)O)NC(=O)[C@H](CC(C)C)NC(=O)[C@H](Cc1ccc(O)cc1)NC(=O)[C@H](CCCCN)NC(=O)[C@H](CO)NC(=O)[C@H](Cc1ccc(O)cc1)NC(=O)[C@H](CC(=O)O)NC(=O)[C@H](CO)NC(=O)[C@@H](NC(=O)[C@H](Cc1ccccc1)NC(=O)[C@@H](NC(=O)CNC(=O)[C@H](CCC(N)=O)NC(=O)C(C)(C)NC(=O)[C@@H](N)Cc1c[nH]cn1)[C@@H](C)O)[C@@H](C)O)C(C)C)C(=O)N[C@@H](CCC(=O)O)C(=O)NCC(=O)NCC(=O)N1CCC[C@H]1C(=O)N[C@@H](CO)C(=O)N[C@@H](CO)C(=O)NCC(N)=O			human, plasma	subcutaneous, 16 mg weekly, week 20		tmax,ss	12 h
OC[C@H]1O[C@@H](c2ccc(F)c(Cc3cc4ccccc4s3)c2)[C@H](O)[C@@H](O)[C@@H]1O			Japanese type 2 diabetes patients, plasma	oral, 100 mg/day, day 14		renal clearance	2.32 ± 0.603 mL/min
O=c1oc2c(O)c(O)cc3c(=O)oc4c(O)c(O)cc1c4c23	HBL-1			0.5 µM, 120 h		viability	98.6%
N#Cc1ccc2c(c1)[C@H]1CCCN(C(=O)c3ccc4[nH]cnc4c3)[C@H]1C2			human	360 mg, day 15		mean ACTH level	7.6 pmol/L
CO[C@@H]1[C@H](OC(=O)N2CC(CCN3CCOCC3)C2)CC[C@]2(CO2)[C@H]1[C@@]1(C)O[C@@H]1CC=C(C)C			humans	subcutaneous, 0.6 mg twice weekly for 4 weeks, day 28	relative to: baseline	heart rate	0.1 ± 5.8 beats/min
COc1cc2c(NC3CCN(CC4CCCCC4)CC3)nc(N3CCCN(C(C)C)CC3)nc2cc1OCCCN1CCCCC1	HBL-1			0.5 µM, 120 h		viability	108%
Cc1cccc(-c2ccc([C@@H]3[C@@H](CO)N4CCCCN(S(=O)(=O)c5cccc(C)c5)C[C@@H]34)cc2)c1	Insulin-degrading enzyme (IDE, Homo sapiens, UniProt P14735)	enzyme activity, inhibitor, fluorogenic kinetic		together with: Mca-RPPGFSAFK(Dnp)-OH substrate		EC50	1000 nM
CCOc1c([C@H](C)n2nc(C)c3c(N)ncnc32)cc(Cl)c(F)c1[C@@H]1CNC(=O)C1		measured: QTcF change above 60 ms	previously treated B-cell malignancy	oral, 5 mg once daily, baseline QTcF ≤450 ms	relative to: baseline	ECG observations	0%
C=CCN1CC(=O)N2[C@@H](Cc3ccc(O)cc3F)C(=O)N(Cc3cccc(N4CC(N5CCN(CC)CC5)C4)n3)C[C@@H]2N1C(=O)NCc1ccccc1			advanced solid tumour patients	oral, 30 mg twice daily, grade ≥3, dose-escalation		any treatment-related adverse event	0%
O=C(O)CCC(=O)O.[2H]C([2H])([2H])Oc1cc(C)c2[nH]ccc2c1CN1CC[C@@H](C2CC2)C[C@H]1c1ccc(C(=O)O)cc1			healthy Chinese subjects	50 mg, single ascending dose		TEAE urine leukocyte positive	0%
CC1(C)CCC(CN2CCN(c3ccc(C(=O)NS(=O)(=O)c4ccc(NCC5CCOCC5)c([N+](=O)[O-])c4)c(Oc4cnc5[nH]ccc5c4)c3)CC2)=C(c2ccc(Cl)cc2)C1			human male, plasma	oral		Vss	4.04 L/kg
N[C@@H](CC(=O)O)C(=O)OC(C(=O)O)c1ccccc1[N+](=O)[O-].O=C(O)C(F)(F)F (mixture of isomers)		1H NMR, dark	50 mM sodium phosphate	concentration not given, pH 9.0, room temperature, 12.5% DMSO-d6		hydrolysis half-life, B isomer	26.2 ± 0.4 h
CS(=O)(=O)c1ccc(-c2nc3ccccc3n2CC(=O)N/N=C/c2ccc(Cl)cc2)cc1			rat, stomach	concentration not given, 4 h	relative to: indomethacin	ulcer index	6.3%

Excerpt of the above:
SMILES	tested on	assay	test system	setting	scale	quantity	value
CNC(=O)c1cc(Cl)c(OC(C)(C)C(=O)O)cc1OC[C@@H](O)CN1CCC2(CC1)Cc1cc(Cl)ccc1O2		equilibrium dialysis	rat, plasma			fraction unbound	0.44
COc1cc2c(NC3CCN(CC4CCCCC4)CC3)nc(N3CCCN(C(C)C)CC3)nc2cc1OCCCN1CCCCC1	HBL-1			0.5 µM, 120 h		viability	108%
